Assay results pooled from the literature.
A part holds a random share of what one study measured. Several values in a cell are separate wells, animals, samples, runs or records.

Set 1 — method: RNA Bind-n-Seq; molecule type: RNA; matrix: in vitro; tested at: 20 nM; setting: 6-mer, flanks averaged, single round; with: 150 mM KCl; relative to: input library; reading: higher = stronger binding
Target: TAR DNA-binding protein 43, full length, His tag (TARDBP, Homo sapiens, UniProt Q13148, residues 1-414)
Strand	6-mer enrichment (R)
GCAGUU	0.808
GUCGAU	0.786
UAAUGU	0.698
UAUGAA	0.86
UGCAUG	1.11
ACUAAU	0.663
GCCUGA	0.842
UUCCGG	0.849

Set 2 — method: Spec-seq; molecule type: double-stranded DNA, one strand shown; matrix: in vitro; tested at: not given; setting: whole probe, mean of replicates; relative to: not given; reading: lower = stronger binding
Target: Transcription factor SOX-2, HMG box (Sox2, Mus musculus, UniProt P48432, residues 41-119)
Chain of UniProt P48432 (41-119, looked up): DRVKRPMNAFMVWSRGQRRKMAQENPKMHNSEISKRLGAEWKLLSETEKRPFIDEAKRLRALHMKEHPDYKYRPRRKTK
Constant ends, left off below: GAGTCGTCTCGTCAGCACCA … CCGTAGAGCACTCAGGTC
Strand	relative binding energy
GGGTT	1.33 ln ratio
TCCCT	0.973 ln ratio
TTCTA	-0.975 ln ratio
TGAAC	0.112 ln ratio
TAACA	-0.414 ln ratio

Set 3 — observed: enzyme activity; mode: inhibitor; tested at: 20 µM
Target: Replicase polyprotein 1ab, polymerase (rep, Severe acute respiratory syndrome coronavirus 2, UniProt P0DTD1)
SMILES	inhibition [%]
N[C@@H](CC(=O)N1CCn2c(nnc2C(F)(F)F)C1)Cc1cc(F)c(F)cc1F	50
COc1cc2c(cc1-c1c(C)noc1C)ncc1[nH]c(=O)n([C@H](C)c3ccccn3)c12	-1.61
CNC(=O)c1c(C)oc2cc(Oc3ncnc4cc(OC)c(OC)cc34)ccc12	-6.33
Cc1ccc(S(=O)(=O)Cc2nc(-c3ccc(C(=O)NCc4cccnc4)cc3)oc2C)cc1	-7.32
Nc1nc2c(c(=O)[nH]1)NC(CNc1ccc(C(=O)N[C@@H](CCC(=O)O)C(=O)O)cc1)CN2 (stereo partly drawn)	9.61
CCOC(=O)Nc1ccc2c(c1)N(C(=O)CN(C)C)c1ccccc1CC2	-3.4
Cc1cc2c(N3CCCC3)nc(N3CCCC3)nc2n1C	2.13
C#C[C@]1(O)CC[C@H]2[C@@H]3CCC4=C(CCC(=O)C4)[C@H]3CC[C@@]21C	23.6
COc1cc2c(cc1OC)CN(CCc1ccc(NC(=O)c3cc(OC)c(OC)cc3NC(=O)c3cnc4ccccc4c3)cc1)CC2	-1.67
c1ccc(C[C@H](c2ccccc2)N2CCCCC2)cc1 (racemic)	-22.9
CC(C)c1ccc(CC(=O)N2CCC[C@@H](c3cccc(OC(C)(C)C(=O)O)c3)C2)cc1	-0.24
O=C(O)C(Cc1ccccc1)CN(O)C(=O)Cc1ccccc1 (stereo not drawn)	2.46
NS(=O)(=O)c1nn2cc(-c3ccccc3)nc2s1	0.02
C[C@@H](Nc1cc(F)cc(F)c1)c1cc(C(=O)N(C)C)cc2c(=O)cc(N3CCOCC3)oc12	-0.16
COc1ccc(Cl)cc1C(=O)NCCc1ccc(C(=O)O)cc1	2.72
COC(=O)Nc1nc2ccc(SC(C)C)cc2[nH]1	-2.09
O=C1NS(=O)(=O)c2ccccc21	1
CCCOc1ccc2c(c1)CC[C@@H]1[C@@H]2CC[C@]2(C)[C@@H](OC)CC[C@@H]12	0.93
O=C(O)CCNc1cc(N2CCc3ccccc3CC2)nc(-c2ccccn2)n1	13.1
CCc1nc2ccc(Cl)cn2c1C(=O)NCc1ccc(N2CCC(c3ccc(OC(F)(F)F)cc3)CC2)cc1	-2.5
CCCCCCCCOc1ccccc1C(=O)Nc1ccc(C(=O)OCC[N+](C)(CC)CC)cc1	1.57
CCCCCCCCCCCCCCCC(=O)OC(C)C	0.23
CC(=O)Oc1ccccc1C(=O)Nc1ncc([N+](=O)[O-])s1	6.46
CC(C)(CO)Cc1cc(C(C)(C)C)c(O)c(C(C)(C)C)c1	-3.09
CN[C@@H]1[C@@H](O)[C@@H](O[C@@H]2[C@@H](O)[C@H](O[C@H]3O[C@H](CN)[C@@H](O)[C@H](O)[C@H]3O)[C@@H](N)C[C@H]2NC(=O)[C@@H](O)CN)OC[C@]1(C)O	-1.65

Set 4 — cell line: HEK-293T/ACE2; tested at: concentration not given; time: 16 (unit not given); relative to: vehicle
SMILES	viability [%]
CCOC(=O)C1=C(COCCN)NC(C)=C(C(=O)OC)C1c1ccccc1Cl (stereo not drawn)	89.3
CO[C@H]1/C=C/O[C@@]2(C)Oc3c(C)c(O)c4c(O)c(c(/C=N/N5CCN(C6CCCC6)CC5)c(O)c4c3C2=O)NC(=O)/C(C)=C\C=C\[C@H](C)[C@H](O)[C@@H](C)[C@@H](O)[C@@H](C)[C@H](OC(C)=O)[C@@H]1C	100
CC(CN1c2ccccc2Sc2ccccc21)N(C)C (stereo not drawn)	98.9
C[C@@H]1C[C@H]2[C@@H]3CCC4=CC(=O)C=C[C@]4(C)[C@@]3(Cl)[C@@H](O)C[C@]2(C)[C@@]1(OC(=O)c1ccco1)C(=O)CCl	104

Set 5 — observed: enzyme activity; mode: inhibitor; tested at: 20 µM; setting: hit confirmation
Target: Replicase polyprotein 1ab, main protease (rep, Severe acute respiratory syndrome coronavirus 2, UniProt P0DTD1)
SMILES	inhibition
CCC[C@H](NC(=O)[C@@H]1[C@H]2CCC[C@H]2CN1C(=O)[C@@H](NC(=O)[C@@H](NC(=O)c1cnccn1)C1CCCCC1)C(C)(C)C)C(=O)C(=O)NC1CC1	54.5% and 27% and 35.6%
O=C(CC1Sc2ncnn2C1=O)Nc1ccc(Br)cc1 (stereo not drawn)	109%
O=C(O)CCCCCCCCCCCCCCc1ccc(I)cc1	98.4%

Set 6 — method: protein-binding microarray; molecule type: double-stranded DNA, one strand shown; matrix: in vitro; tested at: 940 nM top; setting: 60-bp whole probe; with: salmon DNA 0.4 mg/ml; relative to: random background probes; reading: higher = stronger binding; constant ends, left off below: GCCTAGCAC … GTCTTGATTCGCTTGACGCTGCTG
Target: Interferon regulatory factor 5, full length, phosphomimetic (IRF5, Homo sapiens, UniProt Q13568-2, residues 1-514, S451D/S453D/S456D/S462D)
Strand	fitted relative affinity
GACGGTCTCCTACTGGTGACGTGCTAG	-0.417 z-score
TAAGATTTCAGTTTCGATTAGTGCTAG	9.98 z-score
TCAGCTTTCCCGTCCAGACTGTGCTAG	0.774 z-score
GACGGTTTCCTTTTCCGGACGTGCTAG	2.45 z-score
TCAGAGTTCTGTTGCAAACTGTGCTAG	-0.59 z-score
TTAGATCTCCTTCTCCTTTAGTGCTAG	0.596 z-score
GACGGTATCGGGACTGGGGAGGTGCTA	3.58 z-score
AGAGAGAGAGAGAGAGAGAGGTGCTAG	0.651 z-score

Single results of other studies — method: RNA Bind-n-Seq; molecule type: RNA; matrix: in vitro; setting: 4-mer, random 30-nt RNA, single round; relative to: input library; reading: higher = stronger binding
EIF4A1: Eukaryotic initiation factor 4A-I (EIF4A1, Homo sapiens, UniProt P60842, residues 1-406, full length assumed)
Chain of UniProt P60842 (whole entry, looked up): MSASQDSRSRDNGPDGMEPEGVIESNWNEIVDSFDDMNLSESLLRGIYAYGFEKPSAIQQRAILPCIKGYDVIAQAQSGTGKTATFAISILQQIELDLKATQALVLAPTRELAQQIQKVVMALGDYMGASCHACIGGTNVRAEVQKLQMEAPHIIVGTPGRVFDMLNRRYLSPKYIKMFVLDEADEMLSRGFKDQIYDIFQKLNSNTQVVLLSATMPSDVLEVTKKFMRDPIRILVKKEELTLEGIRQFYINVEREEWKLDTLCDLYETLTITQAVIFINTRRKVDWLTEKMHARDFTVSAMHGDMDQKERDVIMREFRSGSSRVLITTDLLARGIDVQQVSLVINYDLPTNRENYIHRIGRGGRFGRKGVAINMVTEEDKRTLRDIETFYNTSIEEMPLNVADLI
DDX3X helicase core: ATP-dependent RNA helicase DDX3X, helicase core (DDX3X, Homo sapiens, UniProt O00571, residues 132-607)
Chain of UniProt O00571 (132-607, looked up): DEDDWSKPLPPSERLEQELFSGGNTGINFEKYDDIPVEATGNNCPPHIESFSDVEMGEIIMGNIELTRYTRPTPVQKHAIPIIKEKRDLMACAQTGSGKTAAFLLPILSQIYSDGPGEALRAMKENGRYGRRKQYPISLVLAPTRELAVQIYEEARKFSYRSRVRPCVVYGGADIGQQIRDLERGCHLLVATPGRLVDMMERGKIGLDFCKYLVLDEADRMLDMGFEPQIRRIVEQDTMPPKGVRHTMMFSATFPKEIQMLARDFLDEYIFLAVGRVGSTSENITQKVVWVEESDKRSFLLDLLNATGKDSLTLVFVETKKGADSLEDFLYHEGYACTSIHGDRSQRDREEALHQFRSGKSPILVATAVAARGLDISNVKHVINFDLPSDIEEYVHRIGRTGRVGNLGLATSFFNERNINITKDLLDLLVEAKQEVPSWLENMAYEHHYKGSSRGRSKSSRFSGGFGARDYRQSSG
Strand	target	tested at	with	4-mer enrichment
GAUC	EIF4A1	not given	RocA, ADP, phosphate	0.741 fold
GACA	DDX3X helicase core	not given	RocA, ADP, phosphate	0.818 fold
CUUC	DDX3X helicase core	90 pmol	3 µM DMDA-PatA, 2 mM ADP, 2 mM phosphate	0.825 fold
AUAU	EIF4A1	not given	RocA, ADP, phosphate	0.906 fold

For quick reference, copied from above (set 3):
SMILES	inhibition [%]
COC(=O)Nc1nc2ccc(SC(C)C)cc2[nH]1	-2.09
O=C1NS(=O)(=O)c2ccccc21	1
CCCOc1ccc2c(c1)CC[C@@H]1[C@@H]2CC[C@]2(C)[C@@H](OC)CC[C@@H]12	0.93
O=C(O)CCNc1cc(N2CCc3ccccc3CC2)nc(-c2ccccn2)n1	13.1
CCc1nc2ccc(Cl)cn2c1C(=O)NCc1ccc(N2CCC(c3ccc(OC(F)(F)F)cc3)CC2)cc1	-2.5
CCCCCCCCOc1ccccc1C(=O)Nc1ccc(C(=O)OCC[N+](C)(CC)CC)cc1	1.57
CCCCCCCCCCCCCCCC(=O)OC(C)C	0.23
